Measurements from different studies.
Protocols differ between the studies behind these lines. ± marks the error that the study gave.

SMILES	test	test system	conditions	Cmax
Cn1cc(C(N)=O)c(NC2C3CC4CC2CC(O)(C4)C3)c2ccnc1-2 (stereo not drawn)	–	Japanese adults, moderate hepatic impairment, plasma	oral, 150 mg single dose	0.111 µg/mL
Cc1ncc2c(n1)CN(C(=O)Nc1nc(-c3cccs3)ccc1N)C2	–	male Sprague-Dawley rats	oral, 30 mg/kg daily, day 14	1.67 ± 0.184 µg/mL
O=C(O)c1cccc(S(=O)(=O)Nc2ccccc2)c1	–	patients with moderate liver dysfunction, plasma	intravenous, 400 mg/m^2 belinostat, single 30 min infusion, cycle 1 day -7, mean	1.82 µg/mL
Cc1noc(C)c1Cn1cc(N2C(=O)CN(Cc3cccc(OS(=O)(=O)O)c3)C2=O)cn1	–	rat Sprague-Dawley male, plasma	oral, 100 mg/kg of parent drug	6.11 µg/mL
Oc1ccc2ccccc2c1/N=N/c1ccc(/N=N/c2ccccc2)cc1	–	Sprague-Dawley rats both sexes, whole blood	oral, 50 mg/kg	0.349 µg/mL
CCCCOc1nc(N)c2[nH]c(=O)n(CCCN(CCCN3CCOCC3)Cc3cccc(CC(=O)OC)c3)c2n1	–	rat, Brown Norway, plasma	intratracheal, 0.3 mg/kg, 5 min	0.002 µM
Cc1noc(C)c1Cn1cc(N2C(=O)CN(Cc3cccc(O[C@@H]4O[C@H](C(=O)O)[C@@H](O)[C@H](O)[C@H]4O)c3)C2=O)cn1	–	rat Sprague-Dawley male, plasma	oral, 100 mg/kg of parent drug	9.09 µg/mL
CN(Cc1ccc(/C=C/C(=O)Nc2ccccc2N)cc1)CC12CC3CC(CC(C3)C1)C2	LC-MS/MS	rat, brain	1 mg/kg	0.315 µM
CCCCC/C=C/C=C/C(=O)NCC(C)C	–	rat, sham-operated, plasma	oral, 50 mg/kg	0.227 ± 0.145 µg/mL
CC(=O)[CH](C(C)=O)[Pt-2]1([S+](C)C)[O]C(C)=CC(C)=[O+]1 (stereo not drawn)	item: platinum	rat, whole blood	intravenous, dose not given	68.8 µg/mL
COC(=O)/C=C/C(=O)c1ccc(OC)cc1	–	Sprague-Dawley rat, both sexes, plasma	oral, 200 mg/kg	0.457 ± 0.11 µg/mL
CNc1cc(C(=O)Nc2ccc(Cl)cc2)ccc1OC	–	male Sprague-Dawley rats, serum	oral, 20 mg/kg	2.69 ± 0.574 µg/mL
COc1ccc(N2CCOCC2)c2sc(NC(=O)c3ccnc(CN4CCCC4)c3)nc12	–	Wistar rat, plasma (total)	oral, 15 mg/kg/day, 14 days	6.38 µg/mL
N[C@@H](COc1ccccc1C(F)(F)F)c1ccccc1	–	male Sprague-Dawley rat, serum	oral, 25 mg/kg	0.258 ± 0.002 µg/mL
C=C(c1ncc(C(=O)O)cn1)c1cc2c(cc1C)C(C)(C)CCC2(C)C	–	rat Sprague-Dawley male, plasma	oral, 100 mg/kg, sesame oil	44 µg/mL

For quick reference, copied from above:
SMILES	test	test system	conditions	Cmax
Cc1noc(C)c1Cn1cc(N2C(=O)CN(Cc3cccc(O[C@@H]4O[C@H](C(=O)O)[C@@H](O)[C@H](O)[C@H]4O)c3)C2=O)cn1	–	rat Sprague-Dawley male, plasma	oral, 100 mg/kg of parent drug	9.09 µg/mL
CC(=O)[CH](C(C)=O)[Pt-2]1([S+](C)C)[O]C(C)=CC(C)=[O+]1 (stereo not drawn)	item: platinum	rat, whole blood	intravenous, dose not given	68.8 µg/mL
